Measured values collected from several papers.
Protocols differ between the studies behind these lines.
Effect on: metabolic stability
Medium: liver microsomes

Compound | host | tested at | pH | microsomal CLint
COCC(=O)N1CCC[C@H](C(=O)NCc2nc(-c3ccc(-c4ccccn4)cc3)cs2)C1 | human | 0.5 µM | – | 37 µL/min/mg
O=c1c2ccc(Oc3ccc(OC(F)(F)F)cc3)cc2[nH]c2ccc(F)c(Cl)c12 | mouse | 1 µM | pH 7.4 | 8.91 µL/min/mg
N[C@@H](COCC(=O)N1CCC[C@H](C(=O)NCc2nc(-c3ccc(C(F)(F)F)cc3)cs2)C1)c1ccccc1 | male Sprague-Dawley rat | 0.5 µM | – | 74 µL/min/mg
c1ccc(-c2nc(N3CCc4ncccc4C3)c3ccccc3n2)nc1 | mouse | – | – | 344 µL/min/mg
Cc1nn(C2CC2)c(=O)c2nn(C)c(Cc3ccc(C(F)(F)F)c(C#N)c3)c12 | human | 0.5 µM | pH 7.4 | < 7 µL/min/mg
O=c1c2ccc(OCc3ccc(OC(F)(F)F)cc3)cc2[nH]c2cc(Cl)cc(F)c12 | mouse | 1 µM | pH 7.4 | 11.5 µL/min/mg
CCn1ncc2c([C@](O)(c3ccc(C(F)(F)F)c(Cl)c3)C3CC3)n(C)nc2c1=O | human | 0.5 µM | pH 7.4 | < 3 µL/min/mg
CNC(C)(C)COCC(=O)N1CCC[C@H](C(=O)NCc2nc(-c3ccc(C(F)(F)F)cc3)cs2)C1 | male Sprague-Dawley rat | 0.5 µM | – | 10 µL/min/mg
CC(C)(C)OC(=O)N1CCC(Oc2ccc3c(=O)c4c(Cl)cc(F)cc4[nH]c3c2)CC1 | mouse | 1 µM | pH 7.4 | 5.98 µL/min/mg
Cn1ccnc1CNc1nc(-c2ccccn2)nc2ccccc12 | mouse | – | – | 62 µL/min/mg
O=c1c2ccccc2[nH]c2cc(Oc3ccc(OC(F)(F)F)cc3)ccc12 | mouse | 1 µM | pH 7.4 | 53.5 µL/min/mg
Cn1cc(CNc2nc(-c3ccccn3)nc3ccccc23)cn1 | mouse | – | – | 179 µL/min/mg
CCOCC(=O)N1CCC[C@H](C(=O)NCc2nc(-c3ccc(C#N)cc3)cs2)C1 | male Sprague-Dawley rat | 0.5 µM | – | 78 µL/min/mg
O=c1c2ccc(Oc3ccccc3OC(F)(F)F)cc2[nH]c2cc(Cl)cc(F)c12 | mouse | 1 µM | pH 7.4 | 31.9 µL/min/mg
c1ccc(C2CCN(c3nc(-c4cnn5c4CCCC5)nc4ccccc34)C2)nc1 (centres unmarked) | mouse | – | – | 666 µL/min/mg
CN1CCC[C@H](OCC(=O)N2CCC[C@H](C(=O)NCc3nc(-c4ccc(C(F)(F)F)cc4)cs3)C2)C1 | human | 0.5 µM | – | 43 µL/min/mg
Cc1cccc(CNc2nc(-c3ccccn3)nc3ccccc23)n1 | mouse | – | – | 151 µL/min/mg
O=c1c2cccc(Oc3ccc(OC(F)(F)F)cc3)c2[nH]c2cc(Cl)cc(F)c12 | mouse | 1 µM | pH 7.4 | 3.74 µL/min/mg
Cn1cc(-c2nc(N3CCC(c4ccccn4)C3)c3ccccc3n2)cn1 (centres unmarked) | mouse | – | – | 88 µL/min/mg
O=C(NCc1nc(-c2ccccc2)cs1)[C@H]1CCCN(C(=O)COCCF)C1 | human | 0.5 µM | – | 16 µL/min/mg

For quick reference, copied from above:
Compound | host | tested at | pH | microsomal CLint
c1ccc(-c2nc(N3CCc4ncccc4C3)c3ccccc3n2)nc1 | mouse | – | – | 344 µL/min/mg
Cc1nn(C2CC2)c(=O)c2nn(C)c(Cc3ccc(C(F)(F)F)c(C#N)c3)c12 | human | 0.5 µM | pH 7.4 | < 7 µL/min/mg
O=c1c2ccc(OCc3ccc(OC(F)(F)F)cc3)cc2[nH]c2cc(Cl)cc(F)c12 | mouse | 1 µM | pH 7.4 | 11.5 µL/min/mg
